Measured values collected from several papers.
A part holds a random share of what one study measured. Substitutions count along the parent as printed.

Set 1
Target: RING finger protein unkempt homolog, zinc fingers 1-6, GST-SBP tag (UNK, Homo sapiens, UniProt Q9C0B0, residues 30-357)
Technique: RNA Bind-n-Seq
Form: RNA
Matrix: in vitro
Tested at: not given
Setting: RNA with constant flanks, ends assumed
Reference: input RNA pool
Direction: higher = stronger binding
Shared flanks, not repeated: GGGAGUUCUACAGUCCGACGAUC … CAACAGAGGAUUGAGCAUCA
Target sequence (chain): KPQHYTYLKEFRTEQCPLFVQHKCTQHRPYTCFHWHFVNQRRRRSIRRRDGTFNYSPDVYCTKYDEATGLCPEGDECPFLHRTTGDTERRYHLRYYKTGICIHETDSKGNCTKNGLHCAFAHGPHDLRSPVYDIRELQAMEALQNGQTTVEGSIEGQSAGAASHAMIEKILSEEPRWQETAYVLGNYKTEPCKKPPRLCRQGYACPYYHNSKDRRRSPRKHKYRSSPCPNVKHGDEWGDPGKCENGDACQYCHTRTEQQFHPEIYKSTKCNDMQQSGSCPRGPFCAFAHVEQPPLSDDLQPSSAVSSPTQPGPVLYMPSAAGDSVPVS
Oligonucleotide	bound/input enrichment [ratio]
UUUUUUGGGGGUGGAUUUCCUUCAGGUAGUGUACAUUCUUUUUCAAAUGGAAGAGCUGGUUACCGCCAACAACAUCAGCAUCGACAUAGUGGACAUGAAAGAGAAGAGGAAAGAGGAGAU	0.721
AAAAUCAAAAACAUUUUCAUAUAUACCAGAGUACUGUAAAAUCUAGGUUUUUUUCAACAUCCGCAGUAAAUUGAGCACUGUUUACUGUUUCAUUGUACCAUGAAACCAUUUGAUUUUUAC	0.342
UGGGAUGAAAAUCUAAAAGAUGAUUCUCUUCCUUCAAAUCCAAUAGAUUUUUCUUACAGAGCCGCUGCUUGUCUUCCUAUUGAUGAUGUAUUGAGAAUUCAGCUCCUUAAAAUUGGCAGU	0.41
GCUGCAUACAUAGAAAAUGCAAAACAGGUUGGCCGCCUUGAAAAUGCAAUCGGGUGGUAUCACCGCCACCCUGGCUAUGGCUGCUGGCUUUCUGGGAUUGAUGUUAGUACUCAGAUGCUC	0.212
AACACCAACACAGCAAUUGAACUAAAAUUAGUUCGUUUUCCUGAAGAUCUUGAAAAUGACAUCCGAACUUUCUUUCCUGAGUAUACCCAUCAACUCUUUGGGGAUGAUGAAACUGCUUUU	0.112
AGCCUGCACAGCCGCGGCGGCAGCAGCAGUGAGAGUUCCAGGGUCUCCCUCCACUGCUGCCGUAACCCGGGUCCGGGGCCUCGGUGGUGCUCCGAUGCCCCUCACCCACCCCUGAAGAUC	0.2
AAGGUAUUUGGAGGUACUGUGCACAAAAAAAGUGUCAGAGAAGAUGGAGUUUUCAACAUCCGUGUGGAUAAUACAUGUUCAUUAUUCAGGGGCCUUCAGAAGGAAGAAGUUGUUUUGCUU	0.212
AUGGAGAGAAAAGAUUUACUGAAAGCAAAUGUGAAAAUCUUCAAAUCCCAGGGUGCAGCCUCCGAUAAAUACGCCAAGAAGUCAGUUAAGGUUAUUGUUGUGGGUAAUCCAGCCAAUACC	0.0807
GCAGGGAUCCUGUCAGCCCUGGGUUCUAAGACAUCACUGAUGAUACGGCAUGAUAAGGUACUCCGAAGUUUUGAUUCAAUGAUCAGCACCAACUGCACGGAGGAGCUGGAGAACGCUGGC	0.124
UACGGGACCCUGGACACUCACCUGGUGUACUCAGAAGAGUCCCCUCUGAGCUGAGACCGUGCCCGGCUGCUGUGCAGUUUGGCGCAGUGACAGACCCGGCUUUUGUUUCUGGGCUUCCAG	0.0436
GAAGAAGCCCAUAAACUCCCAGUAAAACAUUUUACUAAUCCAUAUUGUAACAUCUACCUGAACCGUGUCCAAGUAGCAAAAACUCAUGCAAGGGAAGGGCAAAACCCAGUAUGGUCAGAA	0.27

Set 2
Target: ABI1, truncated, D143A, DHFR fusion (Arabidopsis thaliana)
Technique: DHFR PCA, deep sequencing
Matrix: yeast
Setting: methotrexate growth selection, single substitutions
With: (+)-ABA 710 µM
Reference: wild-type fitted maximum
Direction: higher = stronger binding
Parent: PYL1, truncated, DHFR fusion (Arabidopsis thaliana); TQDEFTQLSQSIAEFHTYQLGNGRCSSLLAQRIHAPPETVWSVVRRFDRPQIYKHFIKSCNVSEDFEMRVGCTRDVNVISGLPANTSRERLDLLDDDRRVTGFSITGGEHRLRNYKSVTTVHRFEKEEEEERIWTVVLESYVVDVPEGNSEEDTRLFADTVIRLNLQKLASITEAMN
Variant	relative binding score [%]
T154P	31.2
Y53K	21.2
V78N	63.9
E38I	66.3
T1E	102
E89H	21.5
R155Y	70.7
L93E	101
T1C	100
V62C	92.3
T135M	14.3
L138Y	97.4
M176T	101
C60D	5.22
L94R	65.2
L29M	93.5

Set 3
Target: Prothrombin, mature alpha-thrombin (F2, Homo sapiens, UniProt P00734)
Technique: aptamer microarray, sandwich
Form: DNA with 2'F-ANA
Matrix: in vitro
Tested at: 200 nM
Setting: whole 15-mer aptamer, many near background
With: Cy3 exosite-II aptamer, 400 nM
Direction: higher = stronger binding
Oligonucleotide: GGTTGGTGTGGTTGG
Modification	mean fluorescence intensity [a.u.]
2'F-ANA at 1 3 6 8 9 10 12 13	105
2'F-ANA at 1 3 7 10 12 13 14 15	102
2'F-ANA at 1 6 7 12 14	103
2'F-ANA at 1 2 4 6 10 11 14	54.2
2'F-ANA at 1 3 4 6 8 9 12 13	260
2'F-ANA at 4 5 9 10 11 13 14 15	154
2'F-ANA at 1 4 5 6 7 9 12 15	101
2'F-ANA at 4 6 12 13	371
2'F-ANA at 2 5 6 8 10 12 14	51.2
2'F-ANA at 2 5 7 8 13 14	123
2'F-ANA at 3 4 7 10 11 14	239
2'F-ANA at 1 3 5 6 7 10 11 12 13	49.4
2'F-ANA at 2 7 9 10 11 12 15	159
2'F-ANA at 2 4 5 6 8 10 13 15	55
2'F-ANA at 1 3 4 5 6 7 9 12 15	111
2'F-ANA at 1 2 3 4 5 6 7 8 9 10 11 13 15	53.8
2'F-ANA at 1 3 5 6 11 14	59.8
2'F-ANA at 4 5 6 8 9 10 11 12 15	55.1
2'F-ANA at 7 9 10 13	172
2'F-ANA at 1 2 3 4 5 6 7 9 10 11 12 13 14	49.7
2'F-ANA at 1 2 3 8 10 11 12 14	51.4
2'F-ANA at 5 9 12 14	55.2
2'F-ANA at 1 5 7 8 11 12	101
2'F-ANA at 1 3 4 5 9 12 13 14	69.1

Set 4
Target: CCNF, cyclin fold, Cln2 fusion (human)
Technique: yeast growth competition, sequencing
Matrix: yeast
Setting: strong parent motif
Reference: not given
Direction: higher = stronger binding
Parent: E2F1 docking peptide (human); PPVKRRLDFETDH; partner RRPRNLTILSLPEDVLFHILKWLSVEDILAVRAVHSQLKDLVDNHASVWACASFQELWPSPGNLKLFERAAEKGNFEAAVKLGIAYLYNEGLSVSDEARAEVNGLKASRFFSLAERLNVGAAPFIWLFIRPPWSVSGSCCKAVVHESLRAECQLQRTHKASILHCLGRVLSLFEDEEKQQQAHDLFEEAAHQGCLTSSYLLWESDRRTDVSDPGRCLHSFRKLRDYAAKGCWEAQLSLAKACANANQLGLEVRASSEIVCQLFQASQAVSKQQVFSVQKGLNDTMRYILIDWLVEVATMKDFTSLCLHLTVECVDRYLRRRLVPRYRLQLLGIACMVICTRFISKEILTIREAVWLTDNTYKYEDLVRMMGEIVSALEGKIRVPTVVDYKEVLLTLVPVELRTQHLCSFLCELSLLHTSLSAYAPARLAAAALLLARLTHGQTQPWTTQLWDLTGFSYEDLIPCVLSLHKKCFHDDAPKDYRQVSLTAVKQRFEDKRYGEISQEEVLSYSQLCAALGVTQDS
Variant	normalised enrichment score
PPSKRRLDFETDH [V3S]	7.27
PPVKRRLDFEHDH [T11H]	7.62
PPVKRWLDFETDH [R6W]	6.83
PPVKRRLPFETDH [D8P]	6.76
PPVIRRLDFETDH [K4I]	6.64
PPVKRRLDFRTDH [E10R]	8.25
PPQKRRLDFETDH [V3Q]	6.37
PPVKRRLDFETMH [D12M]	7.89
PPRKRRLDFETDH [V3R]	3.73
PPHKRRLDFETDH [V3H]	7.06
PPVKRRLDFEEDH [T11E]	6.65
PPVKRRLDFETCH [D12C]	7.76
PPKKRRLDFETDH [V3K]	1.94
PCVKRRLDFETDH [P2C]	8.13
PPVKRRLHFETDH [D8H]	7.86
PPVRRRLDFETDH [K4R]	7.47
PPVKRRLDFESDH [T11S]	7.47
PPVKRREDFETDH [L7E]	0.272
PPVDRRLDFETDH [K4D]	5.41
PPVKRRLDFETSH [D12S]	8
PPVKRRLDWETDH [F9W]	5.66
PPVKRRLMFETDH [D8M]	7.9
PPVKRRLDFEDDH [T11D]	6.71
PPVKRRLDFTTDH [E10T]	7.58
PPVKRRLIFETDH [D8I]	6.09

Set 5
Target: NFIL3, bZIP domain (human)
Technique: DHFR protein complementation
Matrix: yeast
Setting: single substitutions, most at no-binding floor
Reference: wild-type JUN-FOS pair
Direction: higher = stronger binding
Parent: JUN, bZIP domain (human); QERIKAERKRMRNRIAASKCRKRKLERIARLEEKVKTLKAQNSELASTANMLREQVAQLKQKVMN; partner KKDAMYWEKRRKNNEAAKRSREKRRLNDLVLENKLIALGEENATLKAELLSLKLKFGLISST
Variant	binding fitness [natural log]
R53C	-1.13
Q55R	-1.51
S43C	-1.52
A29I	-1.36
E33Q	-1.44
L38G	-1.47
V56E	-1.47
T37V	-1.37
M51N	-1.3
E32F	-1.54
R30I	-1.54
L59C	-1.41
Q55D	-1.42
E33M	-1.15
S43H	-1.47

Other studies, line by line
Substance	target	assay	system	conditions	scale	quantity	result
PhoQ, residues 284 288 289 292 302 303 GASLAW	PhoP, residues 12 14 15 18 19 LHATL (Escherichia coli, UniProt P23836)	Sort-seq, item: YFP reporter	E. coli	PhoQ-PhoP variant library, with: 10 µM Mg2+	reference: high Mg2+ state, higher = stronger signaling	fold induction	5.19

For quick reference, copied from above (set 5):
Variant	binding fitness [natural log]
L59C	-1.41
E32F	-1.54
M51N	-1.3
V56E	-1.47
A29I	-1.36
R53C	-1.13
S43C	-1.52
E33M	-1.15
R30I	-1.54
Q55R	-1.51
Q55D	-1.42
E33Q	-1.44
